Measured values from different studies.
“And” joins repeats or separate records; there may be more than shown. ± marks the error that the study gave.
Genome polyprotein NS3 helicase domain: Genome polyprotein, NS3 helicase domain (Hepatitis C virus genotype 1b, UniProt Q9WMX2)
F10: Coagulation factor X (F10, Homo sapiens, UniProt P00742)
UniProt P00742, sequence (whole entry, looked up): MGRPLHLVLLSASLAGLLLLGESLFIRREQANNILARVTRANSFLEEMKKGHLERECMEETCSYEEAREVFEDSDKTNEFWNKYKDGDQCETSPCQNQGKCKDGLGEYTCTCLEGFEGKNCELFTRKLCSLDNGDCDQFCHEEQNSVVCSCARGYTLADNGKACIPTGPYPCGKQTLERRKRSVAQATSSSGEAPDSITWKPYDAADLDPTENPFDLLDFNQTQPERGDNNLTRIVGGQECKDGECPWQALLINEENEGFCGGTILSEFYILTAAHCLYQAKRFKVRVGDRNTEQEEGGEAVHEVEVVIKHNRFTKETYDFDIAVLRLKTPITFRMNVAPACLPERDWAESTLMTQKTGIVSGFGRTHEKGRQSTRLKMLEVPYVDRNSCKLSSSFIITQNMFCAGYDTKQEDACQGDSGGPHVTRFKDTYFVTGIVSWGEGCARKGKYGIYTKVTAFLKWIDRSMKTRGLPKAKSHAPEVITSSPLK
Palmitoyl-protein thioesterase 1: Palmitoyl-protein thioesterase 1 (Homo sapiens, UniProt P50897)
UniProt P50897, sequence (whole entry, looked up): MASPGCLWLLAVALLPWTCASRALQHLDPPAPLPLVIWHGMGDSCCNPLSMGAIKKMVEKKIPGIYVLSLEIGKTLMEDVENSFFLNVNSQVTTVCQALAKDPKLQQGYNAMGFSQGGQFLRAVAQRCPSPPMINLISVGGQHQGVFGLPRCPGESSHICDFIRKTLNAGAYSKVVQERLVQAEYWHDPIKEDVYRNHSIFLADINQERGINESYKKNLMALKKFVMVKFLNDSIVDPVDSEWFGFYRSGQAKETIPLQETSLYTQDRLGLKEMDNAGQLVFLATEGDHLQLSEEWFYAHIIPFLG
UniProt P43351, sequence (whole entry, looked up): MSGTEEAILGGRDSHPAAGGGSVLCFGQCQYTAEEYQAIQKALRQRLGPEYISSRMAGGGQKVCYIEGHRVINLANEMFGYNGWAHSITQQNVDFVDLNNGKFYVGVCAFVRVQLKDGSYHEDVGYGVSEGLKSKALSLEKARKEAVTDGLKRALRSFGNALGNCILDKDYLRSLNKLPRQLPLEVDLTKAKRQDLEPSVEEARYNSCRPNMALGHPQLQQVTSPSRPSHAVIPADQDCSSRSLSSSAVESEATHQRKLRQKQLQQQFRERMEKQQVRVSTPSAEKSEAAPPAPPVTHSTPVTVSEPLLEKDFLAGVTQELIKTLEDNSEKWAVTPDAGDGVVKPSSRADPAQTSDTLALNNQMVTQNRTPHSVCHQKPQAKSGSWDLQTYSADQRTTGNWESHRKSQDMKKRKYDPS
UniProt Q9NR56, sequence (whole entry, looked up): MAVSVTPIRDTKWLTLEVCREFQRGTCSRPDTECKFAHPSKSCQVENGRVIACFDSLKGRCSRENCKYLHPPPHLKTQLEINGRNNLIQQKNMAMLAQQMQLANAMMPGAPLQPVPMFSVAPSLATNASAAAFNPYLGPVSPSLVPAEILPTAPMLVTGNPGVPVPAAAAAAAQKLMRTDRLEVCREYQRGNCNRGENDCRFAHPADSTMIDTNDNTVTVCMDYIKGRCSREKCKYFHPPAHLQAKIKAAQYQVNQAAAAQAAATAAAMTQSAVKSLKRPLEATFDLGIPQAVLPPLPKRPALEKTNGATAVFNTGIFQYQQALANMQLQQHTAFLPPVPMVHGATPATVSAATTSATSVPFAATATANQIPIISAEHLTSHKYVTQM
UniProt P06730, sequence (whole entry, looked up): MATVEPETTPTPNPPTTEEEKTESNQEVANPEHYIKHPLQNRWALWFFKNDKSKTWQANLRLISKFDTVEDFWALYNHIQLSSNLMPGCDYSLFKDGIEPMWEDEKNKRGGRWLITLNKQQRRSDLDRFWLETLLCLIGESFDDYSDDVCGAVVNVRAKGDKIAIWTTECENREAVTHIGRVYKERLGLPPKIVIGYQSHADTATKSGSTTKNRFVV

With `CC(C)(O)Cn1nc(-c2ccc3nc(OC(F)F)ccc3c2)c2c(N)ncnc21` the IC50 was 0.004 µM (Calmodulin-domain protein kinase 1, putative (Cryptosporidium parvum, UniProt A3FQ16); enzyme activity, inhibitor).
With `N#Cc1c(-c2cccs2)cc(-c2cccs2)nc1SCc1ccc(C(=O)O)cc1` the IC50 was 12.7 µM (KAT2A (Homo sapiens, UniProt Q92830); enzyme activity, inhibitor, radiometric).
`COc1c(O)cc(-c2oc3cc(O)cc(O)c3c(=O)c2O[C@@H]2O[C@@H](C)[C@H](O)[C@@H](O)[C@H]2O)cc1O` — result for IC50: “negative” (alpha-glucosidase Saccharomyces cerevisiae; inhibitor).
`CCCCCCCCCCCCCCCCCC(=O)OCC(O)COC1O[C@H](CS(=O)(=O)O)[C@@H](O)[C@H](O)[C@H]1O` (some centres unmarked) gave an IC50 of ~2 µM (DNA polymerase (POLA1, Bos taurus, UniProt A0AAA9TD94); enzyme activity, inhibitor, radiometric).
`CC(C)(C)C(=O)OCOP(=O)(CCc1cccc(Cn2c[n+](Cc3cc4cc(Cl)ccc4o3)c3c(=O)[nH]c(N)nc32)c1)OCOC(=O)C(C)(C)C` gave an IC50 of 22 µM (EIF4E (Homo sapiens, UniProt P06730); human cells; 6 h treatment, read at 24 h).
`N#C/C(=C\c1ccc(O)c(O)c1)C(=O)c1ccc(O)c(O)c1` has an IC50 of 3.6 ± 0.2 µM (Genome polyprotein NS3 helicase domain; DNA binding, fluorescence polarization; with: Cy5-dT15 DNA 5 nM).
`COc1ccc2nc3cc(Cl)ccc3c(NCCCCc3c(N)nc(N)nc3N)c2c1` has an IC50 of 101 ± 26 µM (Muscleblind-like protein 1, with cTNT RNA (Homo sapiens, UniProt Q9NR56); MBNL1-RNA binding, gel mobility shift; no tRNA, with: cTNT RNA, 15 nM MBNL1).
`Cc1noc(C)c1N(C)S(=O)(=O)c1ccc(C(=O)O)cc1Br` gave an IC50 of 1240 ± 75 µM (RAD52 (Homo sapiens, UniProt P43351); DNA binding, inhibitor, FRET; 25 °C, with: Cy3-dT30-Cy5 1 nM).
`O=C(Nc1ccc(C(=O)Nc2ccc(C(=O)Nc3ccc(S(=O)(=O)O)c4cc(S(=O)(=O)O)cc(S(=O)(=O)O)c34)cc2)cc1)Nc1ccc(C(=O)Nc2ccc(C(=O)Nc3ccc(S(=O)(=O)O)c4cc(S(=O)(=O)O)cc(S(=O)(=O)O)c34)cc2)cc1` has an IC50 of ~49 µM and 48.6 µM (F10; enzyme activity, inhibitor, absorbance; pH 7.4).
`O=C1/C=C/C(=O)N[C@@H](CC2CCCCC2)C(=O)N[C@@H](Cc2ccc(F)cc2)C(=O)N[C@@H](Cc2ccc([N+](=O)[O-])cc2)C(=O)NCCC[C@@H](C(=O)O)N1` has an IC50 of 8.4 µM (HCK (Homo sapiens, UniProt P08631); enzyme activity, inhibitor, absorbance).
The IC50 of `COc1cc(/C=C/c2cc(O)cc(O)c2)ccc1O` is reported as 161 µM (XDH (Bos taurus, UniProt P80457); enzyme activity, inhibitor, absorbance).
For `O=S(=O)(NCc1nc(-c2ccccc2)no1)c1ccccc1`, the IC50 was > 50 µM (Trypanothione synthetase (Trypanosoma brucei, UniProt Q586P2); enzyme activity, inhibitor).
`O=C1/C=C\C(=O)N[C@@H](CC2CCCCC2)C(=O)N[C@@H](Cc2ccccc2)C(=O)N[C@@H](CCCNC(=O)c2cnccn2)C(=O)NCC[C@@H](C(=O)O)N1` has an IC50 of 0.13 µM (SRC (Gallus gallus, UniProt P00523); enzyme activity, inhibitor; kinase domain; with: 250 µM ATP).
`C=C1C(=O)O[C@@H]2[C@H]3C(CO)=CC(=O)C3=C(C)C[C@H](O)[C@@H]12` has an IC50 of 52.8 µM (MAL12 (Saccharomyces cerevisiae S288c, UniProt P53341); enzyme activity, inhibitor, absorbance).
`Cc1ccccc1-c1cc(N2CCN(Cc3ccccc3)CC2)ccc1N(C)C(=O)C(C)(C)c1cc(C(F)(F)F)cc(C(F)(F)F)c1` has an IC50 of 0.316 µM (TACR1 (Homo sapiens, UniProt P25103); nuclear ERK activity, antagonist, FRET biosensor; HEK293T; 30 to 90 min preincubation, with: substance P 10 nM).
For `CN1CCN(C2=Nc3ccccc3Nc3ccccc32)CC1`, the IC50 was > 100 µM (Palmitoyl-protein thioesterase 1; enzyme activity, inhibitor).
For `N[C@@H](Cc1ccc(O)c(-c2cc(C[C@H](N)C(=O)O)ccc2O)c1)C(=O)O`, the IC50 was 0.011 µM (THRB (Homo sapiens, UniProt P10828); ligand displacement, radioligand; lysate).
For `COC(=O)N1CCC(CN2CCC(CNC(=O)c3cccc4[nH]c(C(C)C)nc34)CC2)CC1`, the IC50 was > 10 µM (SLCO1B1 (Homo sapiens, UniProt Q9Y6L6); transporter uptake, inhibitor).
`N#C[C@@H]1CCCN1C(=O)CNC(=O)c1ccnc2ccc(/C=C/C(=O)NCc3cn(CCOCCOCCOCCNC(=O)CCCC[C@@H]4SC[C@@H]5NC(=O)N[C@@H]54)nn3)cc12` gave an IC50 of 0.0092 µM (FAP (Homo sapiens, UniProt Q12884); enzyme activity, inhibitor, fluorescence; with preincubation).
`C#CCn1c(Oc2cccc(C3(C(F)(F)F)N=N3)c2)nc2c1c(=O)n(CCCO)c(=O)n2C` gave an IC50 of 0.121 µM (TRPC4/TRPC1 (TRPC1/TRPC4, Homo sapiens, UniProt P48995+Q9UBN4); calcium influx, inhibitor, Fura-2; HEK T-REx expressing TRPC1/TRPC4; with: englerin A 100 nM).
`COc1ccc(C(=O)Nc2n[nH]c3ccc(NC(=O)C(CCN)c4cccc(Cl)c4)cc23)cc1` (centres unmarked) has an IC50 of 1.9 µM (Proto-oncogene tyrosine-protein kinase Src, SH2 (SRC, Gallus gallus, UniProt P00523, G530I/P529E/Q528E); cell-free assay, inhibitor).
For `Cn1c2c(c3ccc(Cl)c(Cl)c31)C(C#N)C1(CCNCC1)NC2=O` (racemic), the IC50 was 0.2 µM (ROCK2 (Homo sapiens, UniProt O75116); enzyme activity, inhibitor).
`CCCCCCCCCCCCCCCC[n+]1ccn(Cc2ccccc2)c1C` has an IC50 of 12 ± 2.5 µM (Trypanothione synthetase (Trypanosoma brucei brucei, UniProt Q586P2); enzyme activity, BIOMOL Green phosphate release; 1 h preincubation).
`O=C(O)CCc1ccc2c(c1)c(CCc1ccccc1)cn2-c1ccc(Oc2ccccc2)cc1` gave an IC50 of 6.66 µM (PLA2G4A (Homo sapiens, UniProt P47712); enzyme activity, inhibitor, fluorescence).
For `CCNC1=C(Cl)C(=O)c2cc3c(cc2C1=O)CCCC3(C)C`, the IC50 was > 100 µM (DNA topoisomerase IB (Leishmania donovani, UniProt A0A3Q8IHS4+Q8WQM6); DNA relaxation activity, inhibitor; with: supercoiled plasmid DNA).
`CC(C)CCn1c(OC2CCN(C(=O)C3CC3)CC2)nc2c1c(=O)n(C)c(=O)n2C` gave an IC50 of > 57 µM (ALDH1B1 (Homo sapiens, UniProt P30837)).
The IC50 of `CC[C@H](C)[C@H](NC(=O)[C@H](CCCCN)NC(=O)[C@H](CC(C)C)NC(=O)CNC(=O)[C@@H]1CCCN1C(=O)[C@H](CC(N)=O)NC(=O)[C@H](CCCNC(=N)N)NC(=O)[C@H](CCCCN)NC(=O)[C@H](CCCCN)NC(=O)CNC(=O)[C@H](CCCCN)NC(=O)[C@H](CO)NC(=O)[C@H](C)NC(=O)[C@@H](N)Cc1ccc(O)cc1)C(=O)N1CCC[C@H]1C(=O)N[C@@H](CCCCN)C(=O)O` is reported as 16 µM (Mitogen-activated protein kinase 14 (Rattus norvegicus, UniProt P70618, D315S/D316E/E317A); kinase activity, inhibitor, competitive kinase).
For `O=S(=O)(NCc1csc(-c2ccccc2)n1)c1cc(F)ccc1F`, the IC50 was 6.1 µM (Trypanothione synthetase (Trypanosoma brucei, UniProt Q586P2); enzyme activity, inhibitor).
With `CCCCCCCCCCCCCCCC(=O)OC[C@H](NC(=O)CNC(=O)CNc1ccc([N+](=O)[O-])c2nonc12)C(=O)N[C@H](C(=O)N[C@@H](CCCCN)C(=O)N[C@H](C(=O)N[C@@H](CCCCN)C(=O)N[C@@H](CCCCN)C(N)=O)[C@@H](C)CC)C(C)C` the IC50 was 20 µM (Palmitoyl-protein thioesterase 1; enzyme activity, inhibitor; lymphoblast or fibroblast lysate; pH 4.7, with: MUGS-palmitate).
`CN1CCc2nc(C(=O)NC3CC(C(=O)O)CCC3NC(=O)C(=O)Nc3ccc(Cl)cn3)sc2C1` (centres unmarked) gave an IC50 of 0.0018 µM (F10; enzyme activity, inhibitor).
For `CC(=N)N(C)c1ccc(C(=O)Nc2ccc(Cl)cc2C(=O)Nc2ccc(Cl)cn2)cc1`, the IC50 was 0.0003 µM (F10; enzyme activity, inhibitor, absorbance).
`Cc1ccc2nc(-c3ccc4nc(-c5ccc6nc(-c7ccc(N)cc7)sc6c5)sc4c3)sc2c1S(=O)(=O)O` has an IC50 of ~1 µM (Genome polyprotein NS3 helicase domain; DNA unwinding, inhibitor, molecular beacon helicase; with: DNA substrate).
With `CCOC(=O)N1CCN(Cc2nc3c(c(=O)n(C)c(=O)n3C)n2CCC(C)C)CC1` the IC50 was > 57 µM (HPGD (Homo sapiens, UniProt P15428)).
`O=C(O)c1csc(S(=O)(=O)NCc2ccc3c(c2)OCO3)c1` has an IC50 of 46.7 ± 4.9 µM (DNA repair protein RAD52 homolog, with RPA and ssDNA (RAD52, Homo sapiens, UniProt P43351); inhibitor, FRET).
`OC[C@@H]1[C@@H](O)[C@H](O)[C@@H](O)CN1CCCCCOCC1CCCO1` (some centres unmarked) gave an IC50 of > 50 µM (Ugcg (Mus musculus, UniProt O88693); enzyme activity in cells, inhibitor, fluorescence).

Repeated from above:
`C=C1C(=O)O[C@@H]2[C@H]3C(CO)=CC(=O)C3=C(C)C[C@H](O)[C@@H]12` has an IC50 of 52.8 µM (MAL12 (Saccharomyces cerevisiae S288c, UniProt P53341); enzyme activity, inhibitor, absorbance).
`Cc1ccccc1-c1cc(N2CCN(Cc3ccccc3)CC2)ccc1N(C)C(=O)C(C)(C)c1cc(C(F)(F)F)cc(C(F)(F)F)c1` has an IC50 of 0.316 µM (TACR1 (Homo sapiens, UniProt P25103); nuclear ERK activity, antagonist, FRET biosensor; HEK293T; 30 to 90 min preincubation, with: substance P 10 nM).
For `CN1CCN(C2=Nc3ccccc3Nc3ccccc32)CC1`, the IC50 was > 100 µM (Palmitoyl-protein thioesterase 1; enzyme activity, inhibitor).
For `N[C@@H](Cc1ccc(O)c(-c2cc(C[C@H](N)C(=O)O)ccc2O)c1)C(=O)O`, the IC50 was 0.011 µM (THRB (Homo sapiens, UniProt P10828); ligand displacement, radioligand; lysate).
For `COC(=O)N1CCC(CN2CCC(CNC(=O)c3cccc4[nH]c(C(C)C)nc34)CC2)CC1`, the IC50 was > 10 µM (SLCO1B1 (Homo sapiens, UniProt Q9Y6L6); transporter uptake, inhibitor).
